Experimental data pooled from the literature.
Each line is one published result; not all experiments were run side by side. ± gives the spread as reported.
ACHE: Acetylcholinesterase (ACHE, Homo sapiens, UniProt P22303)
Chain of UniProt P22303 (whole entry, looked up): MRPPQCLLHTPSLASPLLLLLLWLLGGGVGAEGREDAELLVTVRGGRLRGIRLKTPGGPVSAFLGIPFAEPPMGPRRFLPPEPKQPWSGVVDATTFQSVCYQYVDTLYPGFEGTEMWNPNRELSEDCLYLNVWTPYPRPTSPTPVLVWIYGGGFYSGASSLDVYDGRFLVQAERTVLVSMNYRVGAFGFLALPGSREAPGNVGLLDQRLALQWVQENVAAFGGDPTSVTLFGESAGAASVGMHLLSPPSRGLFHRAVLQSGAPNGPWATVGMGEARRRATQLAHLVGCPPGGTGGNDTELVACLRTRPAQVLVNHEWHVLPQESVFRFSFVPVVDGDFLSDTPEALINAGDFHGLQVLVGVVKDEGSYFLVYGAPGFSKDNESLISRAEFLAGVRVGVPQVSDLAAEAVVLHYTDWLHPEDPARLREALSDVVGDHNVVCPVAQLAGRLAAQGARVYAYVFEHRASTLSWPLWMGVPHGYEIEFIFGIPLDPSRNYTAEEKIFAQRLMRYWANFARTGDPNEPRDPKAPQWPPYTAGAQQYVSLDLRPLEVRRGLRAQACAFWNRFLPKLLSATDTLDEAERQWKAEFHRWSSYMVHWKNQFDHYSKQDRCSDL
HLA class I histocompatibility antigen, B alpha chain: HLA class I histocompatibility antigen, B alpha chain (Homo sapiens, UniProt P01889)
cas9: CRISPR-associated endonuclease Cas9/Csn1 (cas9, Streptococcus pyogenes serotype M1, UniProt Q99ZW2)
Chain of UniProt Q99ZW2 (whole entry, looked up): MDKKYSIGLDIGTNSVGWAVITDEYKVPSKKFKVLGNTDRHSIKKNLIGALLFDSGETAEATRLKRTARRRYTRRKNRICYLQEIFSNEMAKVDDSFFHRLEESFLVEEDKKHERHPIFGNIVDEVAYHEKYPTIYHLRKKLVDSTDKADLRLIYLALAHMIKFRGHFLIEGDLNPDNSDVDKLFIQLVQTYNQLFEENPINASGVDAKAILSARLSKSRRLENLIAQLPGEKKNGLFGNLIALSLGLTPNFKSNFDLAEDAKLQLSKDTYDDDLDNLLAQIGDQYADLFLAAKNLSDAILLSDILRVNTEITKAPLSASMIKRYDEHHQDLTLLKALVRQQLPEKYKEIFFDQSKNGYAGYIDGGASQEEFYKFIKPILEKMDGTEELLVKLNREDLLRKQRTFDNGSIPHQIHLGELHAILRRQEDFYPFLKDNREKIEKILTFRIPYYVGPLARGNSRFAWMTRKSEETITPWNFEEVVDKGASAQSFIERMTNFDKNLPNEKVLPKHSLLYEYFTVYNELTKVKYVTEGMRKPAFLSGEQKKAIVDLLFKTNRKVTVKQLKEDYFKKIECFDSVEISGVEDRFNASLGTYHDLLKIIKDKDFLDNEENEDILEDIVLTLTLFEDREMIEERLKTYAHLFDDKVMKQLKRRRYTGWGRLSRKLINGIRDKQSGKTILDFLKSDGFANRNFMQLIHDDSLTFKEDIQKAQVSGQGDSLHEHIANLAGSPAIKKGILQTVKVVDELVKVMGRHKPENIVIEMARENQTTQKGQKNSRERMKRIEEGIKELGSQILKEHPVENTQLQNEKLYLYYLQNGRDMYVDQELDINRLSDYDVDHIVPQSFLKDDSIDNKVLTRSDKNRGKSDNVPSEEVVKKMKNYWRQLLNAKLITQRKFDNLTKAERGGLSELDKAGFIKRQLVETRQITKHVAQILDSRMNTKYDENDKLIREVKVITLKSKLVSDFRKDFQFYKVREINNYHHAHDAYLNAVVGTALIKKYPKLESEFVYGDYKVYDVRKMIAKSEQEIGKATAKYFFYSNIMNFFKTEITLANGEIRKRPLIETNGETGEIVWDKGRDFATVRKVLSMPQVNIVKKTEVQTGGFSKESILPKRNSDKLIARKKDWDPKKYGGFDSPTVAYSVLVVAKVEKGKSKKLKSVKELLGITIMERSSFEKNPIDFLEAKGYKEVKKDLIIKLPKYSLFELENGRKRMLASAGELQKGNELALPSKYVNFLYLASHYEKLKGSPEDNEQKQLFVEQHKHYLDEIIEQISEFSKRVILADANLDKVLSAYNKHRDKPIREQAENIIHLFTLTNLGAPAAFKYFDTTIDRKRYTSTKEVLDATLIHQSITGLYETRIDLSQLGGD
Chain of UniProt P41143 (whole entry, looked up): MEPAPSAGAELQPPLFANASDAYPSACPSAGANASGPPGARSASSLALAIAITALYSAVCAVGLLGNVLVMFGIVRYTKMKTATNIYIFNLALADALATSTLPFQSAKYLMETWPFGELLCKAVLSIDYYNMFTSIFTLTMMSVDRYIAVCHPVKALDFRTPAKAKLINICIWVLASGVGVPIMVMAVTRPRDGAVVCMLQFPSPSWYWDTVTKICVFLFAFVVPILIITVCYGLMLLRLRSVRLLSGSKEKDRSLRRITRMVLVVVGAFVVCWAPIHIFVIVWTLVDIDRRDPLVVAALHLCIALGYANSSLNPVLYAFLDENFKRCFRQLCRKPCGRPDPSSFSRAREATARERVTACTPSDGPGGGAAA
Chain of UniProt Q9GZZ6 (whole entry, looked up): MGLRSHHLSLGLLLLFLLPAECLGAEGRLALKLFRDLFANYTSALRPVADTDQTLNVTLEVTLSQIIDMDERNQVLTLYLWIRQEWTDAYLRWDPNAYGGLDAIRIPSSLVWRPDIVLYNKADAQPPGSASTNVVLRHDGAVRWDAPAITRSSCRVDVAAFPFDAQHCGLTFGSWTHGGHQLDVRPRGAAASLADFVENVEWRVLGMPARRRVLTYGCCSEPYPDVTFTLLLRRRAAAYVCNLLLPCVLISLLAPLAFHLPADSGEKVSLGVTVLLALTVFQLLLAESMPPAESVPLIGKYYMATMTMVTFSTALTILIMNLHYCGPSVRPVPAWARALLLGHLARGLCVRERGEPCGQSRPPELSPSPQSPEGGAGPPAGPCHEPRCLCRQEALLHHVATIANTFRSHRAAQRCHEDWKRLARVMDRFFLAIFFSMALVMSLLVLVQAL
Chain of UniProt Q9BV23 (whole entry, looked up): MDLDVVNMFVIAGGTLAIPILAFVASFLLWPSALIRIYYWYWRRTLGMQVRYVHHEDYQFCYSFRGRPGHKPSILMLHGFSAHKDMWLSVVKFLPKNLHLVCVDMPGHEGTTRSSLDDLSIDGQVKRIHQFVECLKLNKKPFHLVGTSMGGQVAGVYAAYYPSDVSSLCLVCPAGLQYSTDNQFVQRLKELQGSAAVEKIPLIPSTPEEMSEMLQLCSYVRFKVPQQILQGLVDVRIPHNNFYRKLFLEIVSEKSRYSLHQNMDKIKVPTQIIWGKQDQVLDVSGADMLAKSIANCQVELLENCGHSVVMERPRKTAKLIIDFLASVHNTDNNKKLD
Chain of UniProt P35354 (whole entry, looked up): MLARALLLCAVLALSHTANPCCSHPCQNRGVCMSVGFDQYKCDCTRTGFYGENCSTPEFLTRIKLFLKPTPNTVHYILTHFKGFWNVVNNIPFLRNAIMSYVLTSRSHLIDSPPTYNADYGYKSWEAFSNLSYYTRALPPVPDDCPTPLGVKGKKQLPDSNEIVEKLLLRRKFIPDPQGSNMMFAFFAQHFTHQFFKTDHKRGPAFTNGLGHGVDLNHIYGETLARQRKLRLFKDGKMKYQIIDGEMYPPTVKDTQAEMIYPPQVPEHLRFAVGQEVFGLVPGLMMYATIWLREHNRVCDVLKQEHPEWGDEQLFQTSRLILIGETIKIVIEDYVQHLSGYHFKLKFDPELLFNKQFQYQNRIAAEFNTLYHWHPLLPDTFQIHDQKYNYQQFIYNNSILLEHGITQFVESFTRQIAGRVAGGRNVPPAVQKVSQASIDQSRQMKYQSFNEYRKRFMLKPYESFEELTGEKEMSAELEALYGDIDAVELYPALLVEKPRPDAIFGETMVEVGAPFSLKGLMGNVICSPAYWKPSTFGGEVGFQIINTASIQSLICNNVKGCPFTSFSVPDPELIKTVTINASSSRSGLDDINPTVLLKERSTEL
Chain of UniProt P41252 (whole entry, looked up): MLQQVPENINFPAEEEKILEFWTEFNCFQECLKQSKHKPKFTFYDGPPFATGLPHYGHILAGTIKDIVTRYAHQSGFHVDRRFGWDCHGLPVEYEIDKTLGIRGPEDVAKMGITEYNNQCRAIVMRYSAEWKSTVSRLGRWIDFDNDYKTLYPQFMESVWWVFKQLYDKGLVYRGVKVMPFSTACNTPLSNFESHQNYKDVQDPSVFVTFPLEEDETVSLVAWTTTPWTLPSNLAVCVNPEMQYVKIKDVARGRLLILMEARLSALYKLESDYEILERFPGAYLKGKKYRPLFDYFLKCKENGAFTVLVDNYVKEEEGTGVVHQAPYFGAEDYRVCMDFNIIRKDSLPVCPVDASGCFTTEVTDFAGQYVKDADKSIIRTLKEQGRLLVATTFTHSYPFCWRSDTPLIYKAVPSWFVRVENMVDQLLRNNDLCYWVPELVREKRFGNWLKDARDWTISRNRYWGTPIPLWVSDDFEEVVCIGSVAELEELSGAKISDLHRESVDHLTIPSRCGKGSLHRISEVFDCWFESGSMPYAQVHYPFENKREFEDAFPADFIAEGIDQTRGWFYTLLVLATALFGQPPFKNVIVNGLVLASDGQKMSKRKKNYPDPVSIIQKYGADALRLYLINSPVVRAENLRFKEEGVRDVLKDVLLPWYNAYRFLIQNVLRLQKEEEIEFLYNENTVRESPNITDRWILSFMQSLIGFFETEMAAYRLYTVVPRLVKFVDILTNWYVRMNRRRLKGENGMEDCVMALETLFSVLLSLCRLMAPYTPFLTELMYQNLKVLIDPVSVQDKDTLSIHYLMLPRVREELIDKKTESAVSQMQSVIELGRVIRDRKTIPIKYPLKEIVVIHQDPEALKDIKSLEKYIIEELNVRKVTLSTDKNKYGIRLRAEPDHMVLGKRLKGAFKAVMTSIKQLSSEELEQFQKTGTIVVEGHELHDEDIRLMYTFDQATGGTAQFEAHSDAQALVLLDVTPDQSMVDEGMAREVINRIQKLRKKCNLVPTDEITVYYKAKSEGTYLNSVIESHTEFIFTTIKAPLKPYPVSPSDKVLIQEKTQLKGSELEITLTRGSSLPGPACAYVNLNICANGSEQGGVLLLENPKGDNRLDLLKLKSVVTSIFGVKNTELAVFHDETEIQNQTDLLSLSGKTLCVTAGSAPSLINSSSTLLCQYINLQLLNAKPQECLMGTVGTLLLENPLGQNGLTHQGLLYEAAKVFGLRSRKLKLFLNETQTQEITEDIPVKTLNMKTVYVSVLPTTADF

SMILES | target | test | system | setting | IC50 [µM]
CN(C)C(=O)C(CCN1CCC(O)(c2ccc(Cl)cc2)CC1)(c1ccccc1)c1ccccc1 | Calcium-activated potassium channel subunit alpha-1, with LRRC26 γ1 subunit (KCNMA1, Homo sapiens, UniProt Q12791) | BK channel conductance, inhibitor, inside-out patch clamp |  | BKα/γ1, Vm -30 mV, nominally Ca2+-free | 28.7 ± 14
Nc1c2c(nc3c1C(c1cccc([N+](=O)[O-])c1)c1ccc(OS(=O)(=O)c4ccc(F)cc4)cc1O3)CCCC2 (stereo not shown) | ACHE | enzyme activity, inhibitor |  |  | 0.625
C[C@H]1CN(c2n[nH]c3nc(N[C@H]4CC[C@H](NS(=O)(=O)CCC(F)(F)F)CC4)ncc23)CCO1 | Isoleucine--tRNA ligase, cytoplasmic (Homo sapiens, UniProt P41252) | biochemical |  |  | ≥ 20
Nc1c2c(nc3c1C(c1cccc(Br)c1)c1ccc(OS(=O)(=O)c4ccccc4)cc1O3)CCCC2 (stereo not shown) | ACHE | enzyme activity, inhibitor |  |  | 1.34
CC[C@H](C)[C@H](NC(=O)[C@H](CC(C)C)NC(=O)[C@H](CC(C)C)NC(=O)[C@H](CCCNC(=N)N)NC(=O)[C@H](CCCNC(=N)N)NC(=O)[C@@H](N)CCCCN)C(=O)N[C@@H](CC(C)C)C(=O)NCC(=O)N[C@@H](CCCNC(=N)N)C(=O)O | HLA class I histocompatibility antigen, B alpha chain, allele B*27:05 (Homo sapiens, UniProt P01889) | peptide binding, fluorescence anisotropy |  | 18 h, 4 °C | 0.111
CCC(C(=O)Nc1sc(C(N)=O)c(C)c1C(=O)OC)c1ccccc1 (stereo not shown) | DNA polymerase processivity factor, with UL42 processivity factor (Human herpesvirus 1, UniProt P10226) | inhibitor |  |  | > 100
CC(C)(c1ccccc1)N1CCCCC1 | Cytochrome P450 2B6 (CYP2B6, Homo sapiens, UniProt P20813) | enzyme activity, inhibitor |  | 30 min, pH 7.4 | 10.2
CC(C)C[C@H](NC(=O)[C@H](CCC(N)=O)NC(=O)[C@H](Cc1ccccc1)NC(=O)[C@H](C)NC(=O)[C@H](CCCCN)NC(=O)[C@H](CC(=O)O)NC(=O)[C@H](CCC(=O)O)NC(=O)[C@@H](N)CC(C)C)C(=O)O | HLA class I histocompatibility antigen, B alpha chain | peptide-MHC binding, radioligand competition binding |  |  | > 70
CCC(C(=O)Nc1cc(NC2CCNC2)ccc1C)n1cc(Br)cc2nc(SCc3ccc(F)cc3)nc1-2 (stereo not shown) | Calpain-1 catalytic subunit (CAPN1, Homo sapiens, UniProt P07384) | enzyme activity |  |  | > 100
CS[C@H]1SC[C@H]2C(=O)N(C)[C@@H](C(C)C)C(=O)OC[C@@H](NC(=O)c3cnc4ccccc4n3)C(=O)N[C@@H](C)C(=O)N(C)[C@@H]1C(=O)N(C)[C@@H](C(C)C)C(=O)OC[C@@H](NC(=O)c1cnc3ccccc3n1)C(=O)N[C@@H](C)C(=O)N2C | cas9 | circular plasmid substrate | Streptococcus pyogenes |  | 100 to 200
O=C(OC(C(F)(F)F)C(F)(F)F)N1CCN(Cc2cccc(Oc3ccccc3)c2)CC1 | Monoacylglycerol lipase ABHD6 (ABHD6, Homo sapiens, UniProt Q9BV23) | enzyme activity, inhibitor |  | added: FP-biotin 1 µM | 0.0513
COc1ccc(S(=O)(=O)Oc2ccc3c(c2)Oc2nc4c(c(N)c2C3c2ccc(Cl)c(Cl)c2)CCCC4)cc1 (stereo not shown) | ACHE | enzyme activity, inhibitor |  |  | 2.21
NC(=O)CC[C@H](NC(=O)[C@@H]1CC[C@@H]2CCN(C(=O)CCCCCC#Cc3cccc4c3CN(C3CCC(=O)NC3=O)C4=O)C[C@H](NC(=O)c3cc4cc(C(F)(F)P(=O)(O)O)ccc4[nH]3)C(=O)N21)C(=O)NC(c1ccccc1)c1ccccc1 (stereo partly shown) | STAT5 | binding, fluorescence polarization |  |  | > 10
CNCCCC12CCC(c3ccccc31)c1ccccc12 | Neuronal acetylcholine receptor; alpha9/alpha10 (Homo sapiens, UniProt Q9GZZ6+Q9UGM1) | inhibitor |  |  | 1.43 ± 0.9
NS(=O)(=O)NCCNc1nonc1C(=NO)Nc1ccc(F)c(Br)c1 | Tryptophan 2,3-dioxygenase (TDO2, Homo sapiens, UniProt P48775) | enzyme activity, inhibitor |  |  | > 50
COc1cc(OC)c(OC)cc1C=O | Prostaglandin G/H synthase 2 (PTGS2, Homo sapiens, UniProt P35354) | inhibitor |  |  | 510
Cc1ccc(C(=O)Nc2ccc(S(=O)(=O)O)c3cc(S(=O)(=O)O)cc(S(=O)(=O)O)c23)cc1NC(=O)c1cccc(NC(=O)Nc2cccc(C(=O)Nc3cc(C(=O)Nc4ccc(S(=O)(=O)O)c5cc(S(=O)(=O)O)cc(S(=O)(=O)O)c45)ccc3C)c2)c1 | cas9 | circular plasmid substrate | Streptococcus pyogenes |  | 50 to 100
O=Cc1ccccc1 | uncharacterized protein (Bradysia odoriphaga, UniProt A0A2S0X9G4) | binding, competitive fluorescence displacement |  | pH 7.4 | > 50
CC[C@H](C)[C@H](NC(=O)[C@@H](NC(=O)[C@H](Cc1c[nH]c2ccccc12)NC(=O)[C@H](CC(=O)O)NC(=O)[C@@H](NC(=O)[C@H](CCCNC(=N)N)NC(=O)[C@@H](N)CCCCN)C(C)C)[C@@H](C)O)C(=O)N[C@@H](CCC(=O)O)C(=O)N[C@@H](Cc1ccc(O)cc1)C(=O)O | HLA class I histocompatibility antigen, B alpha chain | peptide-MHC binding, radioligand competition binding |  |  | > 70
CCN1CCN(Cc2ccc(Nc3nc4ccc(Oc5ccnc(NC(C)=O)c5)cc4n3C)cc2C(F)(F)F)CC1 | Protein kinase 6 (Plasmodium falciparum, UniProt Q8IDW1) | enzyme activity, inhibitor, ADP-Glo |  | added: ATP 100 µM | 1 ± 0.3
O=c1c(O)c(-c2ccc(O)c(O)c2)oc2cc(O)cc(O)c12 | cas9 | circular plasmid substrate | Streptococcus pyogenes |  | 100 to 200
CCCC[C@@H](NC(=O)[C@@H](N)Cc1ccc(O)cc1)C(=O)NCC(=O)N[C@@H](Cc1ccc(F)cc1)C(=O)N(C)CCC[C@@]1(c2ccc(F)cc2)OCc2cc(C#N)ccc21 | Delta-type opioid receptor (OPRD1, Homo sapiens, UniProt P41143) |  |  |  | 0.00316
CC(C)[C@H](NC(=O)[C@@H](NC(=O)[C@H](CCC(=O)O)NC(=O)[C@@H](NC(=O)[C@H](Cc1ccccc1)NC(=O)[C@H](C)NC(=O)[C@H](CO)NC(=O)[C@@H](NC(=O)[C@@H](N)CO)[C@@H](C)O)C(C)C)[C@@H](C)O)C(=O)O | HLA class I histocompatibility antigen, B alpha chain, allele B*18:01 (Homo sapiens, UniProt P01889) | peptide-MHC binding, radioligand competition binding |  |  | > 70
COc1cc(Nc2ncc(F)c(Nc3ccc4c(n3)NC(=O)C(C)(C)O4)n2)cc(OC)c1OC | Interleukin-6 receptor subunit alpha (IL6R, Homo sapiens, UniProt P08887) |  |  |  | > 10
Cc1c2oc3c(C)ccc(C(=O)N[C@@H]4C(=O)N[C@H](C(C)C)C(=O)N5CCC[C@H]5C(=O)N(C)CC(=O)N(C)[C@@H](C(C)C)C(=O)O[C@@H]4C)c3nc-2c(C(=O)N[C@@H]2C(=O)N[C@H](C(C)C)C(=O)N3CCC[C@H]3C(=O)N(C)CC(=O)N(C)[C@@H](C(C)C)C(=O)O[C@@H]2C)c(N)c1=O | cas9 | linear substrate | Streptococcus pyogenes |  | 20 to 50
N[C@@H](Cc1cc(I)c(O)c(I)c1)C(=O)O | Cytochrome P450 2E1 (CYP2E1, Homo sapiens, UniProt P05181) | p-nitrophenol hydroxylation, inhibitor | baculosomes | 10 min, with additive 100 µM | 40
CCOc1ccc2nc3cc(N)ccc3c(N)c2c1 | cas9 | circular plasmid substrate | Streptococcus pyogenes |  | 100 to 200
Cn1cc(C2=C(c3ccc(Cl)cc3Cl)C(=O)NC2=O)c2ccccc21 | Beta-lactamase TEM (bla, Escherichia coli, UniProt P62593) | inhibitor |  |  | > 30

Some of these lines once more:
SMILES | target | test | system | setting | IC50 [µM]
CNCCCC12CCC(c3ccccc31)c1ccccc12 | Neuronal acetylcholine receptor; alpha9/alpha10 (Homo sapiens, UniProt Q9GZZ6+Q9UGM1) | inhibitor |  |  | 1.43 ± 0.9
CCCC[C@@H](NC(=O)[C@@H](N)Cc1ccc(O)cc1)C(=O)NCC(=O)N[C@@H](Cc1ccc(F)cc1)C(=O)N(C)CCC[C@@]1(c2ccc(F)cc2)OCc2cc(C#N)ccc21 | Delta-type opioid receptor (OPRD1, Homo sapiens, UniProt P41143) |  |  |  | 0.00316
Cn1cc(C2=C(c3ccc(Cl)cc3Cl)C(=O)NC2=O)c2ccccc21 | Beta-lactamase TEM (bla, Escherichia coli, UniProt P62593) | inhibitor |  |  | > 30
C[C@H]1CN(c2n[nH]c3nc(N[C@H]4CC[C@H](NS(=O)(=O)CCC(F)(F)F)CC4)ncc23)CCO1 | Isoleucine--tRNA ligase, cytoplasmic (Homo sapiens, UniProt P41252) | biochemical |  |  | ≥ 20
Cc1c2oc3c(C)ccc(C(=O)N[C@@H]4C(=O)N[C@H](C(C)C)C(=O)N5CCC[C@H]5C(=O)N(C)CC(=O)N(C)[C@@H](C(C)C)C(=O)O[C@@H]4C)c3nc-2c(C(=O)N[C@@H]2C(=O)N[C@H](C(C)C)C(=O)N3CCC[C@H]3C(=O)N(C)CC(=O)N(C)[C@@H](C(C)C)C(=O)O[C@@H]2C)c(N)c1=O | cas9 | linear substrate | Streptococcus pyogenes |  | 20 to 50
